Measurements collected from several papers.
A part holds a random share of what one study measured.

Set 1 — method: RNA Bind-n-Seq; form: RNA; sample: in vitro; tested at: 365 nM; reference: no-protein control; direction: higher = stronger binding
Target: RNA binding protein fox-1 homolog 2, RRM domain, GST-SBP tag (RBFOX2, Homo sapiens, UniProt O43251-10, residues 100-194)
Setting: natural RNA segment, single round, ends assumed
Shared flanks, not repeated: GGGAGUUCUACAGUCCGACGAUC … UGGAAUUCUCGGGUGCCAA
Residues (chain): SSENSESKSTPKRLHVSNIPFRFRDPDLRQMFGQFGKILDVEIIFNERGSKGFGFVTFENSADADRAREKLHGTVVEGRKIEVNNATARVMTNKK
`UAUUUUUAGUAGAAACGGGAUUUCACCUUGUUAGGCUGGUCUCGAACUCCUGACCUCAGGUGAUCCACCCACCUUGGCCUCCCAAAGUGCUGGGAUUACAGGUGUGAGCC`: “RBNS enrichment (R)” 0.228.
`UCAAAACUUAGUGACUGUGGGUCACAUUCCCACUGUUGAAACUGCUAAAUUGUGACCUGGGGAAGGACUUUGCUUUAGUCGGUGAUGUUCGUACUUGGUGACAAAUUGAG`: “RBNS enrichment (R)” 0.525.
For `UCUUGUCCCUGAACUUCGUUGUACCAGUGCAUGGAGAGAAAAUUUUGUCCUCUUGUCUUAGAGUUGUGUGUAAAUCAAGGAAGCCAUCAUUAAAUUGUUUUAUUUCUCUC`, “RBNS enrichment (R)” read 5.64.
For `AGCGAGAUGGGUUUGUUCGGUGCCAGCCGACCAAGAUUGACUAGUUUGUUGGACUUAAACGACGAUUUGCUGCUGUGAACCCAGCAGGGUCGCCUCCCUCUGCAUCGGCC`, “RBNS enrichment (R)” read 1.4.
`ACUUCACUGUCCCUGAUAUCUGGAGGUGAGAUGGCAGAGAGGGGCACCAGUGGAGCCAGGAUUGGGGCCUAGGGAAGCCCCCAAUGGUUCUGGAGGCAGGGAUAAGUGUG` — result for “RBNS enrichment (R)”: 0.814.
`GCUUAAAAGUGAGCUUGAAACGUGUGCUUACUAUCUCAUCUCUUCCCUAGUCUUAGUAUUGGACGCUAUUUACUCAGCUAUCAAGUAGAGAUCUUCAAGACGGCCUUUAU`: “RBNS enrichment (R)” 0.613.
For `UGAGUCUGAAAUUAGUGUUAAAGAAGUGUGGUGCCUGAUGUUAUAACAACACCUCAUUCUUAACUGUGUGGCCAAUGUCAGGUAUACCAAAGCAUUCCUCUGACUGCUUU`, “RBNS enrichment (R)” read 0.446.
`CUUUGAGAUACAUUGUUUUGGAAAUUCAUACAAUUUUCUCAACAUUGUAUUCUACUGACAGGAUGCGGUUUUAAAUUUUAUGCCAUCUGUUAUUUAUUCUUGUUUAUUCA`: “RBNS enrichment (R)” 0.695.

Set 2 — method: RNA Bind-n-Seq; form: RNA; sample: in vitro; tested at: 200 nM; setting: whole 134-nt RNA, ends assumed; with: 150 mM KCl; reference: input library; direction: higher = stronger binding
Target: Fragile X messenger ribonucleoprotein 1, C-terminal low-complexity region (Fmr1, Mus musculus, UniProt P35922)
Shared flanks, not repeated: GGGAGUUCUACAGUCCGACGAUC … UGGAAUUCUCGGGUGUCAAGG
For `UGGGAGGUGGAUUUUGUUUAUUUUUUUAGCUCAUUUCCAGGGGUGGGAAUUUUUUUUUAAUACGUGUCAUGAAUAAAGUUGUUUUUGAAA`, the log2 enrichment was 0.252.
`CAAGUCCUGUGCUACACAUCGUAUGUACCGAAUCGGAGGAAAAAGGUUUUUUUGGAAAGUAUUAUGUUACGCCGUUCGGAUCUGCACUUC` has a log2 enrichment of -0.905.
`GUCCUGUGCUACACAUCGUAUGUACCGAAUCAAAUUUAAAUUUUUAAAUUUUUUUAAAAAAGUAUUAUGUUACGCCGUUCGGAUCUGCAC` has a log2 enrichment of -1.31.
For `UCCUCAAGUCCUGUGCUACACAUCGUAUGUACCGAAUCGGAGGGAGGGAGGAAAGUAUUAUGUUACGCCGUUCGGAUCUGCACUUCCAGC`, the log2 enrichment was -0.254.
`ACCAUGCAGGUGGGCAUGUUUGGGAAGUGGGGCAAGGGGGGGAUAGGGAGGGGGGUAACACUUUGGGAACAGGUGGUCCCAGGUCGUUUC` gave a log2 enrichment of 0.726.
`UAUUGAUGCAUUUGACCCUACACUGGCUCCAGCCACAGGAACUCCUGUUGUCGGGGGACUAACCUAUCGAGAAGGCAUGUAUAUUGCUGA` has a log2 enrichment of -0.886.
The log2 enrichment of `UGGGAGGUGGAUUUUGUUUAUUUUUAUAGCUCAUUUCCAGGGGUGGGAAUUUUUUUUUAAUAUGUGUCAUGAAUAAAGUUGUUUUUGAAA` is reported as 0.274.
`UUCGACGGCGCCGGGCGAGUGGCUGUUGAGCGGCGCCGCGGGAGUUCCGCAGGUUUCCCGUGUUCGCAGCGGAGCCGGAGGCCAGCUGAA` has a log2 enrichment of -2.46.
The log2 enrichment of `AGUCCUGUGCUACACAUCGUAUGUACCGAAUCGGGAAAAAAAGGGUUUUUGGGUGGGAAAGUAUUAUGUUACGCCGUUCGGAUCUGCACU` is reported as 0.623.

Set 3 — method: universal PBM; form: double-stranded DNA, one strand shown; sample: in vitro; tested at: not given; direction: higher = stronger binding
Target: Sal-like protein 4, full length isoform B (SALL4, Homo sapiens, UniProt Q9UJQ4-2, residues 1-616)
Setting: 8-mer, flanks averaged, mean of replicates
Target sequence (chain): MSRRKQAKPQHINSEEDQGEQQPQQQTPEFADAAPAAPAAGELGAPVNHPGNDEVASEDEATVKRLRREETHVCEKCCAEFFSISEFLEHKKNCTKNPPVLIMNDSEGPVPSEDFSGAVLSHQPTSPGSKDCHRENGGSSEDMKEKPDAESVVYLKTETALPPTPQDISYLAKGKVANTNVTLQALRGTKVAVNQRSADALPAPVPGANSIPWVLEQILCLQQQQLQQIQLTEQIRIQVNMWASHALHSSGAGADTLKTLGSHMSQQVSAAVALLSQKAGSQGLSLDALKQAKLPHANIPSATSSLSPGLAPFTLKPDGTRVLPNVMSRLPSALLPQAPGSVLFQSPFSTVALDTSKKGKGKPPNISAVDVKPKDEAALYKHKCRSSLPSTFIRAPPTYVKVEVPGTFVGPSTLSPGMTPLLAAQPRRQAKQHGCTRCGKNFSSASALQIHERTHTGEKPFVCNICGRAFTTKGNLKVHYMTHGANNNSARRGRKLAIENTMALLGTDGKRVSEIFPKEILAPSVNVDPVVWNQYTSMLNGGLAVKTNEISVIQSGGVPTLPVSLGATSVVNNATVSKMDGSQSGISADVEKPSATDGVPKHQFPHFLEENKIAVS
With `GCGGACAA` the E-score was 0.00387.
The E-score of `GGTTCTCA` is reported as -0.0449.
For `ACGTAGGA`, the E-score was 0.0325.
`AAGAACGA` gave an E-score of 0.0716.
For `CCAGTTAG`, the E-score was -0.09.
`CGACCATA` has an E-score of 0.142.
The E-score of `ACCACAAA` is reported as 0.102.
With `TCCATGCA` the E-score was 0.0766.
`CGTAGCTC` has an E-score of -0.0707.
`ATCTGTTA` has an E-score of 0.26.
`CGTGACCC` has an E-score of -0.282.
`CAATAAAA` gave an E-score of 0.387.
`ATATTAAC` has an E-score of 0.396.
`ACAGCTCC` gave an E-score of -0.142.
With `ACATTCAC` the E-score was 0.135.
`CTAACGAC` has an E-score of -0.0482.
For `AGGCGAAC`, the E-score was -0.169.
For `CAGAATTC`, the E-score was 0.185.
`ACGGACCC` has an E-score of -0.284.
`TATACTAA` gave an E-score of 0.286.
The E-score of `AATTCTCC` is reported as -0.0477.
`ACCGGGGC` gave an E-score of -0.395.
For `CATGGCCA`, the E-score was -0.0769.
With `ATTTTCGG` the E-score was 0.149.
With `ACCTTTTA` the E-score was 0.0709.

Set 4 — method: aptamer microarray, sandwich; form: DNA with 2'F-ANA; sample: in vitro; tested at: 200 nM; with: Cy3 exosite-II aptamer, 400 nM; direction: higher = stronger binding; strand: GGTTGGTGTGGTTGG
Target: Prothrombin, mature alpha-thrombin (F2, Homo sapiens, UniProt P00734)
Setting: whole 15-mer aptamer, many near background
`2'F-ANA at 5 6 7 8 10` — result for “mean fluorescence intensity”: 45.3 a.u.
For `2'F-ANA at 1 2 10 11 14 15`, “mean fluorescence intensity” read 54.9 a.u.
For `2'F-ANA at 1 2 4 5 7 9 11`, “mean fluorescence intensity” read 67.1 a.u.
Under “mean fluorescence intensity”, `2'F-ANA at 2 5 8 9 10 11 13 15` is recorded as 48.9 a.u.
`2'F-ANA at 5 11 12 15`: “mean fluorescence intensity” 123 a.u.
Under “mean fluorescence intensity”, `2'F-ANA at 1 3 5 6 8 9 11 14` is recorded as 45.8 a.u.
`2'F-ANA at 1 3 4 5 7 8 10 11 12 14`: “mean fluorescence intensity” 48.9 a.u.
`2'F-ANA at 1 2 3 4 6 8 9 11` — result for “mean fluorescence intensity”: 156 a.u.
For `2'F-ANA at 4 5 8 10 13`, “mean fluorescence intensity” read 43.7 a.u.
`2'F-ANA at 3 7 8 9 10 13 14`: “mean fluorescence intensity” 491 a.u.
`2'F-ANA at 2 3 4 5 6 11 12 13`: “mean fluorescence intensity” 109 a.u.
`2'F-ANA at 1 2 5 7 8 10 11 12`: “mean fluorescence intensity” 48.1 a.u.
For `2'F-ANA at 2 6 8 10 11 12 14 15`, “mean fluorescence intensity” read 77.8 a.u.
`2'F-ANA at 8 10 12 13 15` — result for “mean fluorescence intensity”: 194 a.u.
Under “mean fluorescence intensity”, `2'F-ANA at 2 4 7 8 10 11 12 15` is recorded as 119 a.u.
Under “mean fluorescence intensity”, `2'F-ANA at 1 3 5 9 10 11` is recorded as 64.2 a.u.
`2'F-ANA at 2 4 6 8 11 12 13 14`: “mean fluorescence intensity” 94.7 a.u.
`2'F-ANA at 1 9 11 12 13 15` — result for “mean fluorescence intensity”: 235 a.u.
`2'F-ANA at 5 6 8 10 12 14 15`: “mean fluorescence intensity” 47.1 a.u.
`2'F-ANA at 3 4 5 7 8 9`: “mean fluorescence intensity” 127 a.u.
For `2'F-ANA at 1 4 5 9 11 12 15`, “mean fluorescence intensity” read 83.4 a.u.
Under “mean fluorescence intensity”, `2'F-ANA at 1 3 4 6 9 11 12 13` is recorded as 210 a.u.
`2'F-ANA at 1 2 4 7 8 14` — result for “mean fluorescence intensity”: 63.3 a.u.

For quick reference, copied from above (set 3):
The E-score of `ACCACAAA` is reported as 0.102.
With `TCCATGCA` the E-score was 0.0766.
`CGTAGCTC` has an E-score of -0.0707.
`ATCTGTTA` has an E-score of 0.26.
`CGTGACCC` has an E-score of -0.282.
`CAATAAAA` gave an E-score of 0.387.
